Measurements collected from several papers.
Every numbered part comes from another study and shows a few of its results, in no order.

Series 1 — method: protein-binding microarray; molecule type: double-stranded DNA, one strand shown; sample: in vitro; tested at: 940 nM top; setting: 60-bp whole probe; added: salmon DNA 0.4 mg/ml; baseline: random background probes; direction: higher = stronger binding; quantity: fitted relative affinity; shared flanks, not repeated: GCCTAGCAC … GTCTTGATTCGCTTGACGCTGCTG
Target: Interferon regulatory factor 5, full length, phosphomimetic (IRF5, Homo sapiens, UniProt Q13568-2, residues 1-514, S451D/S453D/S456D/S462D)
GACGGACTGCTACTGCTGATGTGCTAG: -0.334 z-score
TTAGAACTTAGTTTCGATTAGTGCTAG: 9.17 z-score
TTATGTATCGGGACTGGGTTAGTGCTA: 1.23 z-score
TTAGATCTCAGATTCGATTAGTGCTAG: 0.41 z-score
CGGGGGTGGGGAGAGCCCCTGTGCTAG: 1.73 z-score
TTAGATTTCAGACTGGGTTAGTGCTAG: -0.105 z-score

Series 2 — method: RNA Bind-n-Seq; molecule type: RNA; sample: in vitro; tested at: not given; baseline: input RNA pool; direction: higher = stronger binding; quantity: bound/input enrichment
Target: RING finger protein unkempt homolog, zinc fingers 1-6, GST-SBP tag (UNK, Homo sapiens, UniProt Q9C0B0, residues 30-357)
Chain of UniProt Q9C0B0 (30-357, looked up): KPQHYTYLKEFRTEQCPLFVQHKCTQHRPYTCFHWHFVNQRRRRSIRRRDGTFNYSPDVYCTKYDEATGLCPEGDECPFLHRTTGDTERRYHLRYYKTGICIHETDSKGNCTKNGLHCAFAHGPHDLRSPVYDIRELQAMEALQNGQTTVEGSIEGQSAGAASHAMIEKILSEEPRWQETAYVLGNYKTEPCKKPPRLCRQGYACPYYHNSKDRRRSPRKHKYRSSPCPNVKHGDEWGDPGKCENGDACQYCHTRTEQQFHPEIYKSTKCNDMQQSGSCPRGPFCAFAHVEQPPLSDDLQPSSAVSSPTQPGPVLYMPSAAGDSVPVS
Setting: RNA with constant flanks, human and mouse sites, ends assumed
Shared flanks, not repeated: GGGAGUUCUACAGUCCGACGAUC … CAACAGAGGAUUGAGCAUCA
CCAGACAGCCCAUCCCCAGACCGAUUUGGGAUGUUGCCCCUGGAUGAGCCUGCUAUUCUUGUUAGUGAAUUCCUAGAUCGUUUUCAAAGCCUUUGUCACUUGGACCUCCAGCUUCCUUCC: 0.358 ratio
UUGUCAUCUGCACCUUUGCACUUUCCUUUCUCUUGUGUUAUUUUUUUUAUUUUUUUUGUCUUUUCUAGACUCUCUUCCCCCCUUUUUGAGUUGUUGGGCAGUUCUUAUUUCUUGCUUGCU: 20.1 ratio
AGAAGCUUCCUAAGGAACAAGCAAGUUGAAUAGAGAAAAUAGUGAUCAAUAAUAGGCAUUUUAGUGGUCUUUUUAAUGUUUUCUGCUGCGGAACAUUUCAAGAUUUAUUGAUUUCCUCCU: 7.42 ratio
AGGAAAGCAACCAAGUGGGCACAGUCGGGCCUCAUUGUCAGUGUCGGACCACCAGUGGAAUCCAUCAACCCAGAGACUGUGAGUGGGCUGUCCACAGGUGACAAGAAGAAAACUGCCCAA: 0.131 ratio
GAUAUUCAUUUGAAUGAAAUGGCUGGAGACAUCUUAGUUUUUCUGACUGGCCAGUUUGAGAUAGAGAAGAGUUGCGAGCUGCUCUUUCAGAUGGCGGAGUCUGUUGACUAUGAUUAUGAU: 0.38 ratio

Series 3 — method: protein binding microarray; molecule type: double-stranded DNA, one strand shown; sample: in vitro; tested at: not given; baseline: not given; direction: higher = stronger binding; quantity: E-score
Target: Histone acetyltransferase KAT6A, winged helix 2, GST fusion (KAT6A, Homo sapiens, UniProt Q92794, residues 85-181)
Setting: 8-mer, flanks averaged, mean of 2 arrays, mostly near background
Target sequence (chain): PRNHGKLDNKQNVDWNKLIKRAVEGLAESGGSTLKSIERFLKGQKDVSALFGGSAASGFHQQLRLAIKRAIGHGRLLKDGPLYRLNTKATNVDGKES
CCTGGATC: -0.0513
TCAGGACA: 0.104
GCAAACAA: 0.0188
AACGGTGT: -0.12
GGTAACTA: 0.00907

Single results of other studies
PhoQ, residues 284 288 289 292 302 303 TLMATV
fold induction (PhoP, residues 12 14 15 18 19 LHTVM (Escherichia coli, UniProt P23836); Sort-seq, item: YFP reporter; E. coli; PhoQ-PhoP variant library, added: 10 µM Mg2+; baseline: high Mg2+ state, higher = stronger signaling): 1.75

A few entries again (series 3):
TCAGGACA: 0.104
